Measured values collected from several papers.
Numbered parts are unrelated; each lists some results of a single study. Values joined by “and” are separate records of one study, mostly repeats; a detail may differ.
UniProt P10635, sequence (whole entry, looked up): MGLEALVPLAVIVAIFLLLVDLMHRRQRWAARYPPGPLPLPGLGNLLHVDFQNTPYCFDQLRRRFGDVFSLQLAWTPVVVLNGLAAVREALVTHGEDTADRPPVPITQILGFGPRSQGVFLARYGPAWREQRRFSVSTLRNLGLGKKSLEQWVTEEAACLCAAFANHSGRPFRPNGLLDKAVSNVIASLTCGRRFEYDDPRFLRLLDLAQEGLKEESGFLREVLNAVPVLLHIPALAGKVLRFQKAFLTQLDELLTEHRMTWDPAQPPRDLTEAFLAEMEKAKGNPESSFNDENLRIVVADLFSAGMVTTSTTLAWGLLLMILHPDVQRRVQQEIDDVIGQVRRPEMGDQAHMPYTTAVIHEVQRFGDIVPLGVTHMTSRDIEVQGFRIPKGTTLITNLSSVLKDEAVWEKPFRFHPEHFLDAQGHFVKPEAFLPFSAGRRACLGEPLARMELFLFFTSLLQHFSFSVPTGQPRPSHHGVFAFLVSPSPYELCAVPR
UniProt P11712, sequence (whole entry, looked up): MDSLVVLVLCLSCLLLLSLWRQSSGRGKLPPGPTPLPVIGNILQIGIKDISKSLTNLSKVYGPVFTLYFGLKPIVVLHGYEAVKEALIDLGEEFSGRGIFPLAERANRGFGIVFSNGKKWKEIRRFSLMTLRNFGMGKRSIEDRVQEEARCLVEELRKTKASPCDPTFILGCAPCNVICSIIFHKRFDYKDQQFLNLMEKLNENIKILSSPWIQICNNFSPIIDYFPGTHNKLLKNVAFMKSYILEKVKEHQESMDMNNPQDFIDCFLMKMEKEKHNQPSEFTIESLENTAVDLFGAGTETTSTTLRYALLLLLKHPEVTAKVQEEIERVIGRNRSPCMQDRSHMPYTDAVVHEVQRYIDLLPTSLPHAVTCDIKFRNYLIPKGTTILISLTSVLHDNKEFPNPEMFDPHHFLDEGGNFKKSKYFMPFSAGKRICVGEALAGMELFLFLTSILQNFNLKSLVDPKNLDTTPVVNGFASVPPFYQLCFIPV

Sample 1
Cell line: Gaucher fibroblasts L444P/L444P
Method: 4-MUG hydrolysis, cell lysate
Concentration: 0.1 µM
Relative to: DMSO
Endpoint: GCase activity
SMILES = Ic1ccc(Nc2nc(NCCN3CCOCC3)nc(N3CCSCC3)n2)cc1; result = 93.1% and 112% and 106% and 92% and 118%
SMILES = Ic1cccc(Nc2nc(NCCN3CCOCC3)nc(N3CCOCC3)n2)c1; result = 102% and 100% and 97.7% and 103% and 94.7% and 95.3%
SMILES = Ic1ccc(Nc2nc(NCCc3c[nH]c4ccccc34)nc(NCCN3CCOCC3)n2)cc1; result = 106% and 100% and 96% and 95%
SMILES = CCN(CC)c1nc(NCCN2CCOCC2)nc(Nc2ccc(I)cc2)n1; result = 92% and 96.2% and 87.8% and 97.4%
SMILES = CCOc1ccc2nc(Sc3nc(NCCN4CCOCC4)nc(Nc4ccc(I)cc4)n3)sc2c1; result = 103% and 99.8% and 82.3% and 105%
SMILES = CCOc1ccc2nc(Sc3nc(N4CCOCC4)nc(N4CCOCC4)n3)sc2c1; result = 106% and 99.5% and 96.8% and 109% and 104%
SMILES = Ic1ccc(Nc2nc(N3CCOCC3)nc(N3CCOCC3)n2)cc1; result = 118% and 109% and 121% and 113% and 110%
SMILES = Ic1ccc(Nc2nc(NCCCN3CCOCC3)nc(N3CCOCC3)n2)cc1; result = 102% and 110% and 109% and 106% and 108%

Sample 2
SMILES: NC/C(=C\F)COc1cccc(Cn2c(=S)[nH]c(=O)c3[nH]cnc32)c1
Mode: inhibitor
Endpoint: remaining activity
CYP2C8: Cytochrome P450 2C8 (CYP2C8, Homo sapiens, UniProt P10632)
UniProt P10632, sequence (whole entry, looked up): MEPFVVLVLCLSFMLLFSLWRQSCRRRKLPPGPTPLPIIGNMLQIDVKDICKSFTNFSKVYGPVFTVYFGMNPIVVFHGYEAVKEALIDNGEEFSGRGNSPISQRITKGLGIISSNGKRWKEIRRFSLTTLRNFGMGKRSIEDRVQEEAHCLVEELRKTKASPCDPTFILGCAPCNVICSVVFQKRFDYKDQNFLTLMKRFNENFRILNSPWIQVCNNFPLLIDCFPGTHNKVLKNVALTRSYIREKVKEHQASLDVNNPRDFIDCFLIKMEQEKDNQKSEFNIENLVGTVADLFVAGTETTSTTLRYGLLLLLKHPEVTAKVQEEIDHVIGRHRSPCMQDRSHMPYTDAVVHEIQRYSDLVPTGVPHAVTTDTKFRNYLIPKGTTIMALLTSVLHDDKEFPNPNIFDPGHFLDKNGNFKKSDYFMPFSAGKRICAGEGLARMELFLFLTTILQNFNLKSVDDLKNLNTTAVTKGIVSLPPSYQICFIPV
CYP1A2: Cytochrome P450 1A2 (CYP1A2, Homo sapiens, UniProt P05177)
UniProt P05177, sequence (whole entry, looked up): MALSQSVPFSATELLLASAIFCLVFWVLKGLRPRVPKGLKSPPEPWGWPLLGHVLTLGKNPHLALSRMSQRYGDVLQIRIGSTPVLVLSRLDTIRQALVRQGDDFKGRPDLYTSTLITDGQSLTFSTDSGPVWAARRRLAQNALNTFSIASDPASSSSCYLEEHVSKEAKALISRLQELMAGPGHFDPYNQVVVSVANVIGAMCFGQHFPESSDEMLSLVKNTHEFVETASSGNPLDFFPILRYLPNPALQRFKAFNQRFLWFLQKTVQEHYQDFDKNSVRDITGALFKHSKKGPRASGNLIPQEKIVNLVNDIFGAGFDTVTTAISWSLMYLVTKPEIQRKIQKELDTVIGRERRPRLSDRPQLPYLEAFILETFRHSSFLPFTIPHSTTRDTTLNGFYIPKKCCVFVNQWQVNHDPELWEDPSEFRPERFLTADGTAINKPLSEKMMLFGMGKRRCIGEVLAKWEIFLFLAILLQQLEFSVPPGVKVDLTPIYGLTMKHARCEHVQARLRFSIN
CYP3A4: Cytochrome P450 3A4 (CYP3A4, Homo sapiens, UniProt P08684)
UniProt P08684, sequence (whole entry, looked up): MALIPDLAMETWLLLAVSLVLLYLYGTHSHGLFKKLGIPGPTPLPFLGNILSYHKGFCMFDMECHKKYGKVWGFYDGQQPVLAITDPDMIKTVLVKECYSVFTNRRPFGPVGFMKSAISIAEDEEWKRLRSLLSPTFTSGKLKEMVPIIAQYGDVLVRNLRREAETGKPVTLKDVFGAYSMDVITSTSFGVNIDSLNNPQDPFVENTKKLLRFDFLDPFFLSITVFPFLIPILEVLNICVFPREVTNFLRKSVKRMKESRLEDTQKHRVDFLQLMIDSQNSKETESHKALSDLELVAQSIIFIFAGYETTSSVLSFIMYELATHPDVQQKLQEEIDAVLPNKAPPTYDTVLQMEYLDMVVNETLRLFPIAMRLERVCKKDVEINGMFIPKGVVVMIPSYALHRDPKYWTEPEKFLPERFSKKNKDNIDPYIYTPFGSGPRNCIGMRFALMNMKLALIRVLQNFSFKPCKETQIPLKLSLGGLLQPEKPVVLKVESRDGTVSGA
target = CYP2C8; conditions = 3.33 µM; result = 82.1% and 92.7%
target = CYP1A2; conditions = 3.33 µM; result = 99.7% and 106%
target = Cytochrome P450 2D6 (CYP2D6, Homo sapiens, UniProt P10635); conditions = 0.37 µM; result = 95.6% and 103%
target = CYP1A2; conditions = 0.37 µM; result = 110% and 99.4%
target = CYP3A4; test = enzyme activity; conditions = 3.33 µM, CYP3A4-MID substrate; result = 70.8%
target = CYP3A4; test = enzyme activity; conditions = 0.37 µM; result = 98.6%
target = CYP2C8; conditions = 0.37 µM; result = 121% and 117%
target = Cytochrome P450 2C9 (CYP2C9, Homo sapiens, UniProt P11712); conditions = 30 µM; result = 33.4% and 27.1%

Further values, each from its own experiment
Structure (SMILES) = Cn1cc(-c2cccc(CN3CCC4(CC3)COc3c4ccc4c3CN([C@H]3CCC(=O)NC3=O)C4=O)c2)cn1; system = Crbn I391V mouse, MC-38 tumour; conditions = oral, daily, 30 mg/kg, animals reaching endpoint, with: anti-LAG3 antibody 10 mg/kg i.p. weekly; endpoint = time to tumour volume 2000 mm3; result = 32 days and 26 days
Structure (SMILES) = C=CCN1C(=O)C(O)(C(=O)O)Oc2cc(F)ccc21 (stereo not drawn); target or system = Arabidopsis thaliana; test = root length; system = Col-0; conditions = 100 µg/mL, 7 days, seed germination, dark; endpoint = inhibition; result = 52.3%

Excerpt of the above (sample 2):
target = CYP3A4; test = enzyme activity; conditions = 0.37 µM; result = 98.6%
target = CYP2C8; conditions = 0.37 µM; result = 121% and 117%
target = Cytochrome P450 2C9 (CYP2C9, Homo sapiens, UniProt P11712); conditions = 30 µM; result = 33.4% and 27.1%
